Results pooled from the literature.
Each numbered part is a random draw from the data of one study; scales do not carry over between parts.

Series 1
Target: Histone acetyltransferase KAT6A, winged helix 1, GST fusion (KAT6A, Homo sapiens, UniProt Q92794, residues 1-85)
Method: protein binding microarray
Molecule type: double-stranded DNA, one strand shown
Matrix: in vitro
Concentration: not given
Notes: 8-mer, flanks averaged, mean of 2 arrays, mostly near background
Baseline: not given
Direction: higher = stronger binding
Construct (chain): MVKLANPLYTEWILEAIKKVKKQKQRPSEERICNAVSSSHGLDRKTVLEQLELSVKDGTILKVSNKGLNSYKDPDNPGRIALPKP
| Oligonucleotide | E-score |
| --- | --- |
| GAATACCA | -0.174 |
| AATTTTTA | -0.123 |
| CCGACGCA | 0.44 |
| GCTGCCCA | -0.0976 |
| CTATAGGA | 0.00485 |
| ACGCGAAA | 0.131 |
| TGAATAAA | 0.00268 |
| CGCGCAAA | 0.316 |
| CACACACG | 0.155 |
| ACTTGCGG | 0.0844 |
| AGGTACCA | -0.235 |
| CGGGTCAC | 0.281 |
| GGCAGTGA | -0.0385 |
| AAGTATAA | 0.0223 |
| GACAATCA | -0.0668 |
| ATCATCCA | -0.27 |
| GTCATCCA | -0.138 |
| CTAGGTGC | -0.00439 |
| CCCCGATC | -0.0086 |

Series 2
Target: Sal-like protein 4, full length isoform A (SALL4, Homo sapiens, UniProt Q9UJQ4, residues 1-1053)
Chain of UniProt Q9UJQ4 (whole entry, looked up): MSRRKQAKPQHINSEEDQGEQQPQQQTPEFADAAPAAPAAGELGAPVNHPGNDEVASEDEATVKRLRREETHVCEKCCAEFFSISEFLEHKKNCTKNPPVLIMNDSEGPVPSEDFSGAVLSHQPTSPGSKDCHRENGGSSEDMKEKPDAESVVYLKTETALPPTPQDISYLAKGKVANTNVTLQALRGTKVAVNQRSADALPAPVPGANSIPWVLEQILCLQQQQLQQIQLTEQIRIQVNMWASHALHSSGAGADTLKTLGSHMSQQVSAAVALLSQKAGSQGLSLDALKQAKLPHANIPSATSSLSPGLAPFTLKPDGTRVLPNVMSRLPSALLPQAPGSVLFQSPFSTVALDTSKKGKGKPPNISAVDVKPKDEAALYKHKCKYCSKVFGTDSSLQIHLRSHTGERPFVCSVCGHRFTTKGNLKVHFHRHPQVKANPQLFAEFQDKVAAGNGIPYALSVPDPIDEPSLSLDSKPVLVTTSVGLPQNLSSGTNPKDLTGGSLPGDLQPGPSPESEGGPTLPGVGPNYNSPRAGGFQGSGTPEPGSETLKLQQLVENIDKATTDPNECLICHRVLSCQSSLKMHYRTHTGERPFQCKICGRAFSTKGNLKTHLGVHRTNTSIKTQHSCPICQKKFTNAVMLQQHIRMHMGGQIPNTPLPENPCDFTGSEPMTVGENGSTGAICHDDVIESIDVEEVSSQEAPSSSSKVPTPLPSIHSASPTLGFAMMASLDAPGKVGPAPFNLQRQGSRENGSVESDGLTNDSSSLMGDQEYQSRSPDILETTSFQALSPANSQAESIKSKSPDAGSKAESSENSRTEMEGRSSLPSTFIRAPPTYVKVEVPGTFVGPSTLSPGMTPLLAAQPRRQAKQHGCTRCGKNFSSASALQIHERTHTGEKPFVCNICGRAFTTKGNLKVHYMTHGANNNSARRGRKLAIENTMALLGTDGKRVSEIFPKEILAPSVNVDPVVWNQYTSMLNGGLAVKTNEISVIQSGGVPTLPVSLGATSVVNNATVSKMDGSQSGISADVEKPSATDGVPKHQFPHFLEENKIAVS
Method: universal PBM
Molecule type: double-stranded DNA, one strand shown
Matrix: in vitro
Concentration: 600 nM
Notes: 8-mer, flanks averaged, mean of replicates
Direction: higher = stronger binding
| Oligonucleotide | E-score |
| --- | --- |
| CACTTCAC | 0.012 |
| GTTCCACA | -0.129 |
| CACAGGAA | 0.0667 |
| CGTAGATC | -0.0197 |
| AGGACACT | -0.204 |
| ATTCCTAA | 0.158 |
| CCAATGAG | -0.16 |
| ACGGAGAT | -0.125 |
| GAGTAATA | 0.323 |
| AACCGAGT | -0.104 |
| CGGTTTAC | -0.104 |
| CGAAAGTA | 0.0773 |
| CGCAGCCG | -0.283 |
| GGAAGGGA | -0.193 |
| AAACCGTA | 0.0803 |
| CGGTCTTA | -0.12 |
| TCTACAAA | 0.139 |
| CTGCTTTA | 0.122 |
| AAATACCC | 0.0103 |
| ACTTCTCC | -0.117 |
| GACCCTCC | -0.307 |
| TATTGGGA | 0.279 |
| CACATGTC | -0.0984 |

Series 3
Target: Centromere-binding protein 1, full length, N-terminal tag (CBF1, Saccharomyces cerevisiae, UniProt P17106, residues 1-351)
Chain of UniProt P17106 (whole entry, looked up): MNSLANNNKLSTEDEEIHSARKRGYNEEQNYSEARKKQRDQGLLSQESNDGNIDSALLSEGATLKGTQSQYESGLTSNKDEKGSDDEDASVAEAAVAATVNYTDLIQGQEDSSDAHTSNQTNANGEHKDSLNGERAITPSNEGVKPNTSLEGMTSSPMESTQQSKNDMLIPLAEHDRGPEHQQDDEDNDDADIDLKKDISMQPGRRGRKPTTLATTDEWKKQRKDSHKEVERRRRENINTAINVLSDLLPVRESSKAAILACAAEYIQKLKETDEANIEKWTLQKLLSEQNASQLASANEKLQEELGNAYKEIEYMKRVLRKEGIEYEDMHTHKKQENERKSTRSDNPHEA
Method: protein-binding microarray
Molecule type: double-stranded DNA, one strand shown
Matrix: in vitro
Concentration: 0.8 µM
Notes: whole 60-bp probe, no competitor
Direction: higher = stronger binding
| Oligonucleotide | fluorescence intensity [a.u.] |
| --- | --- |
| GAAGCCCCGATAATCCACATGATCATAAGGTCGTAGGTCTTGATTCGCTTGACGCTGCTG | 1230 |
| GAACAATTCTAATTAAACGTGCACAGATCTTTTTAGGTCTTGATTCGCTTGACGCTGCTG | 669 |
| GAAGTATATTGGCACCTGAGCAAATCCAACAAATAGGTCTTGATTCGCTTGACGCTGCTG | 845 |
| CTAATCGAACTTTATCACCCGCAGCATAAAGTATTCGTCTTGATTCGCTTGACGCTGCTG | 524 |
| GAATTTCTTAGCGAGGACGTGCTTCTCCAGCGATAGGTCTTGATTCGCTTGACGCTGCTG | 583 |
| CTATCTACTTTCCATCACCTGGTTTTCATCGACTTCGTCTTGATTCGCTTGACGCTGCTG | 728 |
| CTATTTGTTTCTGAGATCGTGACCTTAGATTGTTTCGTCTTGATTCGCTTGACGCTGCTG | 1610 |
| GAAAAGTGGTAGGGTAAGCACGTGTGTGTTATTTAGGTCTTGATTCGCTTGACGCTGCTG | 6410 |
| GAATAATAAAACATAAACGTGATGCTTTTACCATAGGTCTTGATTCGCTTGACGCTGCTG | 1200 |
| CTATACTCACTTTCGCACATGCGATTACGTGTATTCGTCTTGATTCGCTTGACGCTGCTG | 562 |
| CTAGTAGTATATTATCACGTGCGGTGTAAGAGGTTCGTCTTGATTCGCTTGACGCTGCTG | 8970 |
| GAACTGCTTTATAATCACGGGAGTATGACAGCATAGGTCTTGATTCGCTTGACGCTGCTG | 1110 |
| CCTAACTACTATAAGCTCGTGCTATAGCTTCGTACAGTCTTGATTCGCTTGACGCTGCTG | 613 |
| GAAAACCGTCCCTGTCACGCTGGTGCCCCCACATAGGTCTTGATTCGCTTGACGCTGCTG | 644 |
| GAAATTTTTTATGAGCACGTGTTATTTATTCCTTAGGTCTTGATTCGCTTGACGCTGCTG | 16100 |
| GAAATTGGGCCAAGGCACGTTTGGTAAAGTACTTAGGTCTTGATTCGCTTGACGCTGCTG | 506 |
| CTAAGTCTGCGGTATAATCACCTGGCCTAGTGCTTCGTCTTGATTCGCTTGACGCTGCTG | 727 |
| GAATTCAATTTCGACTGCATGATGCTTTTCTTATAGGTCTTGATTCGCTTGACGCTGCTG | 576 |
| GAAGTATCACATGATAGTCACGTGCAGTGATTATAGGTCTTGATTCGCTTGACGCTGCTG | 21200 |

Series 4
Target: RING finger protein unkempt homolog, zinc fingers 1-6, SBP tag (UNK, Homo sapiens, UniProt Q9C0B0, residues 30-357)
Chain of UniProt Q9C0B0 (30-357, looked up): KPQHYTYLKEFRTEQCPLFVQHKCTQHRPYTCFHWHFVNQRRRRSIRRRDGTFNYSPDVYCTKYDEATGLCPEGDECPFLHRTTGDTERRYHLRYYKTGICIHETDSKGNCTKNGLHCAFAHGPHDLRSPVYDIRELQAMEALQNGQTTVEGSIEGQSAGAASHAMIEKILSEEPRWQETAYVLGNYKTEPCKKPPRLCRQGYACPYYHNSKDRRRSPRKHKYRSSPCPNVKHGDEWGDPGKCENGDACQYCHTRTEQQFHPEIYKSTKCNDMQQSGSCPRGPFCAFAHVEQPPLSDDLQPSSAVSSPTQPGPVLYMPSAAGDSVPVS
Method: RNA Bind-n-Seq
Molecule type: RNA
Matrix: in vitro
Concentration: 100 nM
Notes: RNA with constant flanks, vertebrate orthologous sites, ends assumed
Baseline: input RNA pool
Direction: higher = stronger binding
| Oligonucleotide | bound/input enrichment |
| --- | --- |
| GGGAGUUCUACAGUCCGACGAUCAUUCAAACCUGUGGUGCCGUGGCCUCAUGUUGAAGGAGUAGAAGUGGACUUAGAGUCUAUUAGAAGAAAAAACAAGGCCAAAAAUGAACAAGAGCGCCACGCUGGAGGAGCUAACCAGAACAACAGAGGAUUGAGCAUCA | 0.34 ratio |
| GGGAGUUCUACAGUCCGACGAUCCAAUUCAAUGGUCGAGGGUUCAGAACUCAAAAAGGUUCGCUCCAACUCCAGGAUUUACCAUAGGUAUUUUUUACUGGAUGCUGACAUGCAGAGCCUGAGGUGGGAACCAUCUAAGAAGGACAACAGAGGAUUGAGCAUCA | 0.154 ratio |
| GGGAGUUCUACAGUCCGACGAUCGUUAGGCCAUGACCCUUACAGGCUAGGUCAUGAUGCCUACAGGUUAGGGCAAGACCCCUAUAGAUUAGGGCAUGACCCCUACAGACUAACUCCUGAUCCCUAUAGGAUGUCACCUAGACCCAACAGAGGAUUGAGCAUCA | 0.434 ratio |
| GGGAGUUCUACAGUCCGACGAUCUCUACUGACCACUCACUGUUAUGUCUGGAUAUCUGUAAACACUUUUCUUUUUGUUCUUAGUCUUUUUCUUGUAUAAUUGAUGUUCUCUAAAAUUGUUAAUGUAUCACAGGGCUCAUGUUUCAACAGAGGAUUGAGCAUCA | 1.39 ratio |
| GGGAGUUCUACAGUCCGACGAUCUAAUGUGUUUUUAUUUACUGAAGAUCGUUUUGUGCUAAGAAUUGUGUUAGAUUGAAAAAUAAGAGGAUUAGUUUCUCUUUGUUGUGUUGAUUUCAUUGUUGAAAAUAAAUAGAACUUUGUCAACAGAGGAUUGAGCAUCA | 0.597 ratio |
| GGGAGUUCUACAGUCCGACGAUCCUUUUAAUCAACUAUGUCUGUAAAUGUAUAUUGAGAGAAUUGAAGUAUUUAUAAACAGAGUGAUUUAUUUAAGGAAAAGCUUAUCCCUCUUUCCUAUCGUGGUCUGUGUUAAUUACAUUUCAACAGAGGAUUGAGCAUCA | 0.29 ratio |
| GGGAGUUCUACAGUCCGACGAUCUGUGUUGGUUGGGGUAGAAGGGGAGCAGGGCAGGACAGUGUGUGGAAUCUCUAGGAUAUGUAGGUAGAUAGGAUGCAGUUAGUUUUAACUGGGCUUAUAUGUUAAAAACUUCUGGGGGUGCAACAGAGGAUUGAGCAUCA | 0.943 ratio |
| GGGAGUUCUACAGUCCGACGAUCCAGGGUAUACCUGUGGGGCACUGCUGGCCGCUUAUUGUUGUUUAAUUUGUGACCUUGACAUUCUAGAUAGGCUUUUUUUUUUUAAUUUAAAGAUAGUAAGACCUAAUUCACUAAAAUUUACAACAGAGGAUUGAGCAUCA | 0.824 ratio |

Series 5
Target: Prothrombin, mature alpha-thrombin (F2, Homo sapiens, UniProt P00734)
Method: aptamer microarray, sandwich
Molecule type: DNA with 2'F-ANA
Matrix: in vitro
Concentration: 200 nM
Notes: whole 15-mer aptamer, many near background
Together with: Cy3 exosite-II aptamer, 400 nM
Direction: higher = stronger binding
Oligonucleotide: GGTTGGTGTGGTTGG
| Modification | mean fluorescence intensity [a.u.] |
| --- | --- |
| 2'F-ANA at 4 5 7 9 11 14 | 68.2 |
| 2'F-ANA at 1 6 9 10 | 53.2 |
| 2'F-ANA at 2 3 4 5 8 10 11 13 | 48.7 |
| 2'F-ANA at 2 4 5 11 12 13 14 15 | 48.4 |
| 2'F-ANA at 5 6 9 12 14 15 | 51.9 |
| 2'F-ANA at 5 7 8 9 11 14 15 | 48.9 |
| 2'F-ANA at 1 2 3 4 5 8 9 11 12 15 | 107 |
| 2'F-ANA at 1 4 5 6 7 9 11 15 | 56.2 |
| 2'F-ANA at 3 4 6 8 11 | 562 |
| 2'F-ANA at 1 2 3 5 8 9 10 12 13 15 | 49.4 |
| 2'F-ANA at 2 5 8 9 10 15 | 49.3 |
| 2'F-ANA at 1 3 4 6 7 9 10 11 12 14 | 67.1 |
| 2'F-ANA at 1 2 7 8 9 13 | 170 |
| 2'F-ANA at 1 2 3 4 7 8 9 10 11 13 14 15 | 63.6 |
| 2'F-ANA at 1 3 4 10 13 14 15 | 58.6 |
| 2'F-ANA at 1 4 5 6 7 8 13 | 54.9 |
| 2'F-ANA at 2 5 6 8 10 11 12 14 15 | 49.9 |
| 2'F-ANA at 6 8 9 10 11 12 14 | 112 |
| 2'F-ANA at 1 2 4 5 7 9 10 11 12 | 51.8 |
| 2'F-ANA at 1 3 4 7 8 11 15 | 236 |

Some of these lines once more (series 2):
| Oligonucleotide | E-score |
| --- | --- |
| GGAAGGGA | -0.193 |
| AAACCGTA | 0.0803 |
| CGGTCTTA | -0.12 |
| TCTACAAA | 0.139 |
| CTGCTTTA | 0.122 |
| AAATACCC | 0.0103 |
| ACTTCTCC | -0.117 |
| GACCCTCC | -0.307 |
